Published values from different studies.
Compare with care: the assays were run in different laboratories. Several values in a cell are separate wells, animals, samples, runs or records. ± marks the error that the study gave.

SMILES | test | system | setting | how to read | measurement | result
CCO[C@H]1CCN(Cc2c(OC)cc(C)c3[nH]ccc23)[C@H](c2ccc(C(=O)O)cc2)C1 | measured: PNH-type erythrocytes | PNH patients, blood | 25 mg/100 mg, week 8, mean | – | PNH red cell clone size | 79.6%
O=P(O)(O)C(Cl)(Cl)P(=O)(O)O | immunostaining, measured: F4/80 | mouse, subarachnoid haemorrhage, meningeal perivascular | 23000 µg/mL | – | macrophage density | 5.84 cells/mm²
Cn1cc(Nc2nccc(-c3ccc4c(c3)CN(C3COC3)CC[C@H]4NC(=O)c3cn(C(C)(C)C)nn3)n2)cn1 | measured: Isoleucine Degradation I | splenic B cells, Mus musculus | 30 mg/kg, added: IgD activation | baseline: vehicle, direction not given | pathway activation z-score | 0
COc1cc(Nc2ncc3c(n2)-c2ccc(Cl)cc2C(c2c(F)cccc2OC)=NC3)ccc1C(=O)O | – | mouse, NB-SD neuroblastoma xenograft | 10.4 mg/kg | direction not given | median response score | 2
N#Cc1ccc2c(c1)[C@H]1CCCN(C(=O)c3ccc4[nH]cnc4c3)[C@H]1C2 | measured: Triglycerides | human | 80 mg once daily, day 28, adjusted mean | – | change from baseline | -34.9 mg/dL
N#CCC1CCN(c2nc(Nc3ccc(N4CCC(O)CC4)cc3)c3c(=O)[nH]ncc3n2)CC1 | Olink multiplex, measured: CD163 | human, serum | 40 mg, day 15 | baseline: baseline | fold change from baseline | -1.4
C=CCn1c(=O)c2cnc(Nc3ccc(N4CCN(C)CC4)cc3)nc2n1-c1ccc2c(n1)[C@@](O)(CC)CC2 | – | LS-513 xenograft, BALB/c nude mice | oral, 60 mg/kg once daily x 21, day 23 | baseline: vehicle | tumour growth inhibition | 26.2%
C[C@@H](NC(=O)N1C(=O)[C@H](Cc2ccnc(N)c2)[C@H]1C(=O)O)C1CCCCC1 | – | human | iv infusion, 0.3 mg/kg/h, 24 h | – | aPTT Emax | 49.5 s
CN[C@@H]1COc2c(S(=O)(=O)NC(=O)Nc3c4c(cc5c3CCC5)CCC4)cnn2C1 | measured: IL-1β | human participants, whole blood ex vivo | 450 mg single dose, 1 h, added: LPS/ATP | baseline: baseline | inhibition | 99%
CCOc1c([C@H](C)n2nc(C)c3c(N)ncnc32)cc(Cl)c(F)c1[C@@H]1CNC(=O)C1 | Olink proximity extension proteomics, measured: CXCL13 | human FL or MZL patients, plasma | dose not given, week 8 | baseline: baseline | plasma protein level change | -77%
COc1cc(-c2ccccc2)ncc1C(=O)Nc1ccc2c(=O)[nH]c(-c3ccc(C(C)(C)O)cc3)nc2c1 | RNA-seq GSEA, measured: FALLER_STEM_MOUSE | organoids, small intestinal, Apc Q1405X, mouse | dose not given, wild-type organoids | baseline: DMSO, direction not given | normalized enrichment score | -1
NC(=O)c1cnc2[nH]ccc2c1N[C@@H]1[C@@H]2CC3C[C@H]1C[C@@](O)(C3)C2 | flow cytometry, measured: CD4+ effector T cells | Japanese healthy subjects, peripheral blood | oral, 30 mg twice daily, day 7 | – | change from baseline | -0.05%
N#Cc1ccc2c(-c3ccncc3)c(-c3ccc(F)cc3)nn2c1 | kinase binding, competitor, MIB/MS competition, measured: KSP1 | Candida albicans cell lysate | 10 µM | baseline: DMSO | log2 fold change | 0.129
O=S(=O)(NCCNC/C=C/c1ccc(Br)cc1)c1cccc2cnccc12 | – | mouse zygotes | 20 µM, 72 h post-hCG | – | embryos reaching blastocyst | 0%
CN(C)C(=N)N=C(N)N | – | gestational diabetes women | dose not given, treated arm | – | caesarean birth incidence | 40%
c1ccc(-c2n[nH]cc2-c2ccnc3ccccc23)nc1 | kinase binding, competitor, MIB/MS competition, measured: YCK2 | Candida albicans cell lysate | 100 nM | baseline: DMSO | log2 fold change | 0.831
C[C@H](Oc1ccc(Br)cc1-c1ccon1)C(=O)O | muscle velocity recovery cycles | human, tibialis anterior muscle | 400 mg once daily, multiple doses, 30 Hz train for 30 s | baseline: placebo | peak amplitude change | -1.7%
Cc1n[nH]c2ccc(-c3cc(OC[C@@H](N)Cc4ccccc4)cnc3-c3ccoc3)cc12 | kinase binding, competitor, MIB/MS competition, measured: RIM8 | Candida albicans cell lysate | 10 µM | baseline: DMSO | log2 fold change | -2.22
CCN(CC)CCNC(=O)c1cc(S(C)(=O)=O)cnc1OC.Cl | catalepsy bar test | female CD-1 mice | intraperitoneal, 200 mg/kg, 90 min after dosing | – | time on bar | 0.43 s and 6.79 s and 0.83 s and 2.02 s and 0.5 s
C[C@@H]1CCC[C@H](n2cnc(-c3cc(Cl)ccc3-n3cc(Cl)nn3)cc2=O)c2cc(ccn2)-c2c(cnn2C(F)F)NC1=O | – | cynomolgus monkey plasma | IC2.5× aPTT, Actin FS reagent | – | concentration for aPTT prolongation | 2400 nM
N#Cc1ccc2c(c1)[C@H]1CCCN(C(=O)c3ccc4[nH]cnc4c3)[C@H]1C2 | – | human, plasma | 20 mg, day 15, 360 h | baseline: placebo and baseline | change in HOMA-IR | -41.4%
CC(=O)NCC(=O)NCC(=O)N[C@H](C(=O)N[C@@H](Cc1ccc(O)cc1)C(=O)N[C@@H](CO)C(=O)N[C@H]1CSSC[C@@H](C(=O)N[C@@H](CCCNC(=N)N)C(=O)N2CCC[C@H]2C(=O)N[C@@H](CCC(N)=O)C(=O)N[C@@H](CCCNC(=N)N)C(=O)NCC(=O)NCCC(=O)N[C@@H](CCCCNC(=O)CN(CC(=O)NCCCC[C@H](NC(=O)CCNC(=O)CNC(=O)[C@H](CCCNC(=N)N)NC(=O)[C@H](CCC(N)=O)NC(=O)[C@@H]2CCCN2C(=O)[C@H](CCCNC(=N)N)NC(=O)[C@@H]2CSSC[C@H](NC(=O)[C@H](CO)NC(=O)[C@H](Cc3ccc(O)cc3)NC(=O)[C@@H](NC(=O)CNC(=O)CNC(C)=O)[C@@H](C)O)C(=O)N[C@@H](Cc3c[nH]cn3)C(=O)N[C@@H](Cc3ccccc3)C(=O)NCC(=O)N[C@@H](C)C(=O)N[C@@H](CC(C)C)C(=O)N[C@@H]([C@@H](C)O)C(=O)N[C@@H](Cc3c[nH]c4ccccc34)C(=O)N[C@@H](C(C)C)C(=O)N2)C(N)=O)C(=O)CCN)C(N)=O)NC(=O)[C@H](C(C)C)NC(=O)[C@H](Cc2c[nH]c3ccccc23)NC(=O)[C@H]([C@@H](C)O)NC(=O)[C@H](CC(C)C)NC(=O)[C@H](C)NC(=O)CNC(=O)[C@H](Cc2ccccc2)NC(=O)[C@H](Cc2c[nH]cn2)NC1=O)[C@@H](C)O | – | healthy BALB/c mice | subcutaneous, 0.16 mg/kg, 4 d, single dose | – | haematocrit | 47.1%

SMILES | test | system | setting | how to read | measurement | result
C=Cc1c(C)c2cc3nc(c(CC(=O)O)c4[nH]c(cc5nc(cc1[nH]2)C(C)=C5CC)c(C)c4C(=O)O)[C@@H](CCC(=O)O)[C@@H]3C | flow cytometry | 4T1 tumour-bearing mice, lymph nodes | 2.5 mg/kg | – | CD80+ CD86+ dendritic cells | 33.1% and 29.4% and 21.2% and 30.6%
Cc1ccc([C@@H]2O[C@H](CO)[C@@H](O)[C@H](O)[C@H]2O)cc1Cc1ccc(-c2ccc(F)cc2)s1 | – | Japanese type 2 diabetes patients | 200 mg, day 17 | baseline: day 1 | change in fasting plasma glucose | -51 mg/dL
Cc1oncc1C(=O)Nc1ccc(C(F)(F)F)cc1 | measured: dihydroorotate | female CD-1 mice, pooled urine | oral, 10 mg/kg daily, 8-24 h after dose 10, 10-day dosing | – | DHO concentration | 5480 ± 827 µM
C[C@@H](O)CCOC(=O)C[C@@H](C)O | measured: C18:2 acylcarnitine | human, plasma | 60 min, log2-transformed values | – | metabolite level | -4.08 ± 0.52 µmol/L
CCCCCN1C[C@H](O)[C@@H](O)[C@H](O)[C@@H]1CO | balance beam test | Hexb-/- mouse | dose not given | baseline: untreated | delay in beam-crossing failure | 2 week
CC(C)NCC(O)c1ccc(O)c(O)c1 (centres unmarked) | – | ventricular cardiomyocytes, C57BL/6 mouse | dose not given, 0.836 s | – | sarcomere length | 1.52 µm
COc1ccc(-c2cncc(N[C@@H](C)c3cccc(NC(=O)c4cncc(C)c4)c3)n2)cc1OC | measured: rno-miR-141-3p | rat SU5416/hypoxia model, lung | dose not given | baseline: SU5416/hypoxia vehicle | fold change | 1.85
N=C(N)NCCC[C@H](NC(=O)[C@H](CCCNC(=N)N)NC(=O)[C@H](CCCCN)NC(=O)[C@H](CCC(N)=O)NC(=O)[C@H](CCCCN)NC(=O)[C@H](Cc1ccc(O)cc1)NC(=O)[C@@H](N)CCCCN)C(=O)N[C@@H](CO)C(=O)N[C@@H](Cc1ccc(O)cc1)C(=O)N[C@@H](CCCCN)C(=O)O | – | dentin hypersensitivity patients | 10 µg/tooth single, day 22, unit not given | baseline: baseline | median tactile threshold change | -1
CN(CCOc1ccc(CC2SC(=O)NC2=O)cc1)c1ccccn1 (racemic) | indirect calorimetry | mice, diet-induced obese | dose not given, end of treatment | – | VO2 | 85.4 ± 7.19 mL/min/kg
CC(C)[C@H](C(=O)Nc1ccc(C(=O)NO)cc1)c1ccccc1 | volumetric MRI | human, left internal auditory canal tumour | dose not given, 224 days | – | tumour volume | 2.4 cm³
CC1(C)CCC(CN2CCN(c3ccc(C(=O)NS(=O)(=O)c4ccc(NCC5CCOCC5)c([N+](=O)[O-])c4)c(Oc4cnc5[nH]ccc5c4)c3)CC2)=C(c2ccc(Cl)cc2)C1 | cell killing | canine lymph node CD3+ T cells, dog 34 | 24 h | – | EC50 | 1.17 µM
C[C@H]1C[C@H]2CSC(N)=N[C@@]2(c2nc(NC(=O)c3ccc(OC(F)F)cn3)cs2)CO1 | measured: Aβx-40 | healthy adults, plasma | 40 mg single dose, 8 h post-dose | baseline: placebo | percent change from baseline | -51.6%
Cc1noc(C)c1-c1cc(C(O)(c2ccccn2)c2ccccn2)c2nc(C3CC3)[nH]c2c1 | measured: CCR2 expression | human, peripheral blood | 6 mg, day 1, 1599 study | – | maximum inhibition | 23.9%
Cc1cnc(Nc2ccc(OCCN3CCCC3)cc2)nc1Nc1cccc(S(=O)(=O)NC(C)(C)C)c1 | – | BALB/c mice rhEPO-induced polycythemia | 120 mg/kg | – | hematocrit | 44.2% and 43.6% and 48.2% and 46.3% and 49.4% and 48.3%
N#Cc1ccn2c(-c3ccncc3)c(-c3ccc(F)cc3)nc2c1 | kinase binding, competitor, MIB/MS competition, measured: TOR1 | Candida albicans cell lysate | 1 µM | baseline: DMSO | log2 fold change | 0.0413
COc1ncc(-c2nc3c(n2C(C)C)[C@H](c2ccc(Cl)cc2)N(c2cc(Cl)cn(C)c2=O)C3=O)c(OC)n1 | antileukemic activity, measured: treatment failure, indeterminate cause | human, acute myeloid leukaemia | dose not given, all patients, IWG criteria | – | best overall response | 8.8%
Cc1ncc(Cl)cc1NCc1ccc(C(=O)N[C@@H](CC2CCCC2)C(=O)NC2CC2)s1 | – | mice, K562-p21-ffLuc xenograft | oral gavage, 150 mg/kg single, 4 h | baseline: vehicle | p21-luciferase fold increase | 4 fold
CSCCNc1nc(SCCC(F)(F)F)nc2c1ncn2[C@@H]1O[C@H](COP(=O)(O)OP(=O)(O)C(Cl)(Cl)P(=O)(O)O)[C@@H](O)[C@H]1O | light transmittance aggregometry | human patients, platelet-rich plasma | dose not given, 30 min, added: ADP 20 µM | baseline: patients | patients with IPA above 90% | 0%
COc1ccccc1[C@H](Cn1c(=O)n(C(C)(C)C(=O)O)c(=O)c2c(C)c(-c3ncco3)sc21)OC1CCOCC1 | [1-13C]acetate infusion, isotopomer analysis | overweight or obese healthy men, plasma VLDL-TG palmitate | oral, 50 mg single dose, 10 h post-dose, added: oral fructose | – | fractional hepatic DNL | 21.7 % new palmitate
O=C(O)CNC(=O)Cc1ccccc1 | – | ventricular cardiomyocytes, C57BL/6 mouse | dose not given, 0.284 s | – | sarcomere length | 1.69 µm
Cc1cc(Nc2ccc(S(F)(F)(F)(F)F)cc2)n2nc(C(C)(F)F)nc2n1 | measured: dihydroorotate | female CD-1 mice, blood | oral, 300 mg/kg daily, 8 h after dose 3 | – | DHO concentration | 1.59 ± 0.14 µM
OC(CCN1CCCCC1)(c1ccccc1)C1CC2C=CC1C2 (centres unmarked) | resting-state EEG | healthy elderly humans | oral, 4 mg, eyes open, LS mean | – | beta power, EEG, Fz Cz | 5.7 µV²

Some of these lines once more:
SMILES | test | system | setting | how to read | measurement | result
C=Cc1c(C)c2cc3nc(c(CC(=O)O)c4[nH]c(cc5nc(cc1[nH]2)C(C)=C5CC)c(C)c4C(=O)O)[C@@H](CCC(=O)O)[C@@H]3C | flow cytometry | 4T1 tumour-bearing mice, lymph nodes | 2.5 mg/kg | – | CD80+ CD86+ dendritic cells | 33.1% and 29.4% and 21.2% and 30.6%
Cc1ccc([C@@H]2O[C@H](CO)[C@@H](O)[C@H](O)[C@H]2O)cc1Cc1ccc(-c2ccc(F)cc2)s1 | – | Japanese type 2 diabetes patients | 200 mg, day 17 | baseline: day 1 | change in fasting plasma glucose | -51 mg/dL
Cc1oncc1C(=O)Nc1ccc(C(F)(F)F)cc1 | measured: dihydroorotate | female CD-1 mice, pooled urine | oral, 10 mg/kg daily, 8-24 h after dose 10, 10-day dosing | – | DHO concentration | 5480 ± 827 µM
